Assay results from different studies.
Parts stem from different laboratories: compare values within a part only. Positions count from the first letter of the parent shown.

Sample 1 — technique: aptamer microarray, sandwich; form: DNA with 2'F-ANA; matrix: in vitro; tested at: 200 nM; added: Cy3 exosite-II aptamer, 400 nM; reading: higher = stronger binding; measurement: mean fluorescence intensity; strand: GGTTGGTGTGGTTGG
Target: Prothrombin, mature alpha-thrombin (F2, Homo sapiens, UniProt P00734)
Setting: whole 15-mer aptamer, many near background
Modification = 2'F-ANA at 1 3 4 5 6 7 11 14 15; result = 45.6 a.u.
Modification = 2'F-ANA at 3 6 7 8 10 11 12; result = 604 a.u.
Modification = 2'F-ANA at 2 3 4 6 7 11 12 15; result = 595 a.u.
Modification = 2'F-ANA at 1 2 3 5 6 10 12 13 14; result = 51.6 a.u.
Modification = 2'F-ANA at 3 9 10 13 14; result = 439 a.u.
Modification = 2'F-ANA at 1 2 3 4 5 7 11 13; result = 46.6 a.u.
Modification = 2'F-ANA at 1 2 4 5 9 10 13 14 15; result = 50.8 a.u.
Modification = 2'F-ANA at 2 4 6 7 15; result = 314 a.u.
Modification = 2'F-ANA at 4 9 10 13 15; result = 67.8 a.u.
Modification = 2'F-ANA at 3 4 5 11 15; result = 79 a.u.
Modification = 2'F-ANA at 1 2 5 7 11 12 15; result = 79 a.u.
Modification = 2'F-ANA at 1 2 7 8 10 12 14 15; result = 91.6 a.u.
Modification = 2'F-ANA at 1 2 5 9 13 15; result = 48 a.u.
Modification = 2'F-ANA at 1 7 9 10 13; result = 48.7 a.u.
Modification = 2'F-ANA at 2 3 4 6 8 9 10 12; result = 289 a.u.
Modification = 2'F-ANA at 5 8 10 12 13 14 15; result = 135 a.u.
Modification = 2'F-ANA at 2 3 5 7 10 11 14; result = 48.8 a.u.
Modification = 2'F-ANA at 2 4 6 7 9 11 13 14 15; result = 66.7 a.u.
Modification = 2'F-ANA at 4 11 15; result = 252 a.u.
Modification = 2'F-ANA at 1 6 8 9 12 13 14; result = 75.9 a.u.
Modification = 2'F-ANA at 1 3 5 6 8 9 10 12 14 15; result = 46 a.u.
Modification = 2'F-ANA at 1 4 5 7 8 12; result = 118 a.u.
Modification = 2'F-ANA at 1 4 5 7 11; result = 49.9 a.u.
Modification = 2'F-ANA at 1 6 8 10 12 14; result = 44.8 a.u.
Modification = 2'F-ANA at 4 10 14; result = 65.8 a.u.

Sample 2 — target: FOSB, bZIP domain (human); technique: DHFR protein complementation; matrix: yeast; baseline: wild-type JUN-FOS pair; reading: higher = stronger binding; measurement: binding fitness
Setting: single substitutions, most at no-binding floor
Parent: JUN, bZIP domain (human); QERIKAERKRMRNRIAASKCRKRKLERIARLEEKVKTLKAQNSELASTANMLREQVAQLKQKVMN; partner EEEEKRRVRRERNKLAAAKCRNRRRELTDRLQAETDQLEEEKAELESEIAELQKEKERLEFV
Variant = R30F; result = 0.0494 natural log
Variant = L59S; result = -1.15 natural log
Variant = S43K; result = 0.144 natural log
Variant = Q58R; result = -0.178 natural log
Variant = Q55M; result = -0.256 natural log
Variant = T48Q; result = -0.0183 natural log
Variant = K36E; result = -0.0625 natural log
Variant = K34T; result = -0.105 natural log
Variant = A49V; result = -0.132 natural log
Variant = A29W; result = -0.293 natural log
Variant = M51L; result = -0.00048 natural log
Variant = S43N; result = -0.0497 natural log
Variant = V56R; result = -1.14 natural log
Variant = M51D; result = -0.0764 natural log
Variant = K39Y; result = -0.776 natural log
Variant = A46S; result = -0.112 natural log
Variant = S43C; result = -0.0695 natural log

Sample 3 — technique: protein-binding microarray; form: double-stranded DNA, one strand shown; matrix: in vitro; tested at: not given; reading: higher = stronger binding; measurement: E-score
Target: Max-binding protein MNT, bHLH-zipper, MAX partner unstated (MNT, Homo sapiens, UniProt Q99583, residues 220-300)
Setting: k-mer, scored over probes, only values ≥0.25
Residues (chain): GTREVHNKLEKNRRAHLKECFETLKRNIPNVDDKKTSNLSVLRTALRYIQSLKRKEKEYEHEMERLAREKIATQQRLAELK
Strand = ATGCTTCC; result = 0.263
Strand = CACGAGAG; result = 0.284
Strand = ACGCATAA; result = 0.271
Strand = CCGACCCC; result = 0.251
Strand = GGTGGGTA; result = 0.299
Strand = AGTGCACA; result = 0.273
Strand = CACGTTCC; result = 0.406
Strand = GCCCCCGC; result = 0.267
Strand = CAAGCATG; result = 0.4
Strand = CCACCTGC; result = 0.344
Strand = CATGGTAA; result = 0.273
Strand = ACAACGTG; result = 0.462
Strand = GAACACGC; result = 0.419

Sample 4 — technique: protein-binding microarray; form: double-stranded DNA, one strand shown; matrix: in vitro; tested at: 250 nM; setting: 60-bp whole probe; added: salmon DNA 0.4 mg/ml; baseline: random background probes; reading: higher = stronger binding; measurement: log fluorescence; all sequences stand within: GCCTAGCAC … GTCTTGATTCGCTTGACGCTGCTG
Target: Interferon regulatory factor 5, full length, phosphomimetic (IRF5, Homo sapiens, UniProt Q13568-2, residues 1-514, K96S/S451D/S453D/S456D/S462D)
Strand = GACGGTTTCCTTTCCCTTACGTGCTAG; result = 1.85 z-score
Strand = TTAGATTTCGAGTATCGATTAGTGCTA; result = 7.65 z-score
Strand = TTAGGTATCCTTTTCTTTTAGTGCTAG; result = 0.883 z-score
Strand = TCAAATTTCTTTCTAATACTGTGCTAG; result = 1.85 z-score
Strand = GGCGGTTTCGGTTCCGGGACGTGCTAG; result = 10 z-score
Strand = TCATTTCTATATTTGCTACTGTGCTAG; result = 2.25 z-score
Strand = GACGGTTTCGGATATCGGGACGTGCTA; result = 6.16 z-score
Strand = GACGAATTCAGTTCCGAGACGTGCTAG; result = 0.063 z-score
Strand = TCACCCCTCTCATTCCAACTGTGCTAG; result = 0.187 z-score
Strand = CACGGACTGGGTATCGGGACGTGCTAG; result = 0.449 z-score
Strand = TCAGATTTCAGTATCGATTAGTGCTAG; result = 8.35 z-score
Strand = TGGTCTTTCCACTTTCTTTTGTGCTAG; result = 2.04 z-score
Strand = TTAGGACTGGATCTCGGTTAGTGCTAG; result = -0.172 z-score
Strand = TATTGTGCAATTAGAGCCCTGTGCTAG; result = 0.104 z-score
Strand = TTAGATTTCAGACTGGATAAGTGCTAG; result = 0.456 z-score
Strand = TCATTTTTCCCTATTATACTGTGCTAG; result = 1.49 z-score
Strand = GCTTTCCCCTTGGACTCTTTGTGCTAG; result = 1.22 z-score
Strand = GACGATTTCGGGTTTCAAGACGTGCTA; result = 3.79 z-score

Sample 5 — technique: DHFR PCA, deep sequencing; matrix: yeast; added: (+)-ABA 200 µM; baseline: wild-type fitted maximum; reading: higher = stronger binding; measurement: relative binding score
Target: ABI1, truncated, D143A, DHFR fusion (Arabidopsis thaliana)
Setting: methotrexate growth selection, single substitutions
Parent: PYL1, truncated, DHFR fusion (Arabidopsis thaliana); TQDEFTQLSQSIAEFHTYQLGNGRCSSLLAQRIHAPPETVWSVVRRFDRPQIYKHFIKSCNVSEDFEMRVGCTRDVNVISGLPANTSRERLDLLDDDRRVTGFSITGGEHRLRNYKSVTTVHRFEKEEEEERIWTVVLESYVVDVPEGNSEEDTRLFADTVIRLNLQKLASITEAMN; partner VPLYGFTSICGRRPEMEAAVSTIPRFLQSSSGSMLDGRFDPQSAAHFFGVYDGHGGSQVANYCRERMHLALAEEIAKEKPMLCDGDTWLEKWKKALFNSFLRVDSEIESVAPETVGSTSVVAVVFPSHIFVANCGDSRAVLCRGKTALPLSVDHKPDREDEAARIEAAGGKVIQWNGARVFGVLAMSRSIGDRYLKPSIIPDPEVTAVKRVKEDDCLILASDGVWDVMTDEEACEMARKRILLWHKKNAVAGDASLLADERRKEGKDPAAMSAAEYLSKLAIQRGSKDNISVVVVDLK
Variant = S104D; result = 10.6%
Variant = H110A; result = 16.4%
Variant = R49Y; result = 90.4%
Variant = V44G; result = -4.26%
Variant = L112E; result = -10.3%
Variant = S63M; result = 94.8%
Variant = D95H; result = 73.2%
Variant = I57E; result = -3.43%
Variant = P50C; result = 62%
Variant = I79A; result = 100%
Variant = E151C; result = 92.1%
Variant = Q7A; result = 100%
Variant = D65L; result = 90.7%
Variant = D75V; result = 108%

Sample 6 — target: CCND1, cyclin fold, Cln2 fusion (human); technique: yeast growth competition, sequencing; matrix: yeast; setting: weak parent motif; baseline: not given; reading: higher = stronger binding; measurement: normalised enrichment score
Parent: ORC1 docking peptide (human); PRARKRLELGNLG; partner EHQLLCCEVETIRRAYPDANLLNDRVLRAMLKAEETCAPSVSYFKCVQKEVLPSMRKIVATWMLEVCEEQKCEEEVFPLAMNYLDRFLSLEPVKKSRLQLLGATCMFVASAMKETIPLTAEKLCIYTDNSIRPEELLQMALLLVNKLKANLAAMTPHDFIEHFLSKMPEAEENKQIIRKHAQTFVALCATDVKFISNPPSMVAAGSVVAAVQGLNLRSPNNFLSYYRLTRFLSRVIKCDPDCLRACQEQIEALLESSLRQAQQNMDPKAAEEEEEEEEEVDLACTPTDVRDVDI
Variant = PRARPRLELGNLG [K5P]; result = 0.794
Variant = PRAAKRLELGNLG [R4A]; result = -0.00538
Variant = PRARKRWELGNLG [L7W]; result = 0.203
Variant = PRARKCLELGNLG [R6C]; result = -0.111
Variant = IRARKRLELGNLG [P1I]; result = -0.0821
Variant = PRYRKRLELGNLG [A3Y]; result = 0.27
Variant = PRARIRLELGNLG [K5I]; result = -0.0636
Variant = PRARKRQELGNLG [L7Q]; result = -0.249
Variant = PRARKRLELGNVG [L12V]; result = -0.365
Variant = YRARKRLELGNLG [P1Y]; result = 0.0448
Variant = PRARKRLELGNLM [G13M]; result = 0.752
Variant = PRARKRLTLGNLG [E8T]; result = -0.431
Variant = PRQRKRLELGNLG [A3Q]; result = 0.613
Variant = PSARKRLELGNLG [R2S]; result = -0.327

Sample 7 — technique: universal PBM; form: double-stranded DNA, one strand shown; matrix: in vitro; tested at: 600 nM; reading: higher = stronger binding; measurement: E-score
Target: Sal-like protein 4, full length isoform A (SALL4, Homo sapiens, UniProt Q9UJQ4, residues 1-1053)
Chain of UniProt Q9UJQ4 (whole entry, looked up): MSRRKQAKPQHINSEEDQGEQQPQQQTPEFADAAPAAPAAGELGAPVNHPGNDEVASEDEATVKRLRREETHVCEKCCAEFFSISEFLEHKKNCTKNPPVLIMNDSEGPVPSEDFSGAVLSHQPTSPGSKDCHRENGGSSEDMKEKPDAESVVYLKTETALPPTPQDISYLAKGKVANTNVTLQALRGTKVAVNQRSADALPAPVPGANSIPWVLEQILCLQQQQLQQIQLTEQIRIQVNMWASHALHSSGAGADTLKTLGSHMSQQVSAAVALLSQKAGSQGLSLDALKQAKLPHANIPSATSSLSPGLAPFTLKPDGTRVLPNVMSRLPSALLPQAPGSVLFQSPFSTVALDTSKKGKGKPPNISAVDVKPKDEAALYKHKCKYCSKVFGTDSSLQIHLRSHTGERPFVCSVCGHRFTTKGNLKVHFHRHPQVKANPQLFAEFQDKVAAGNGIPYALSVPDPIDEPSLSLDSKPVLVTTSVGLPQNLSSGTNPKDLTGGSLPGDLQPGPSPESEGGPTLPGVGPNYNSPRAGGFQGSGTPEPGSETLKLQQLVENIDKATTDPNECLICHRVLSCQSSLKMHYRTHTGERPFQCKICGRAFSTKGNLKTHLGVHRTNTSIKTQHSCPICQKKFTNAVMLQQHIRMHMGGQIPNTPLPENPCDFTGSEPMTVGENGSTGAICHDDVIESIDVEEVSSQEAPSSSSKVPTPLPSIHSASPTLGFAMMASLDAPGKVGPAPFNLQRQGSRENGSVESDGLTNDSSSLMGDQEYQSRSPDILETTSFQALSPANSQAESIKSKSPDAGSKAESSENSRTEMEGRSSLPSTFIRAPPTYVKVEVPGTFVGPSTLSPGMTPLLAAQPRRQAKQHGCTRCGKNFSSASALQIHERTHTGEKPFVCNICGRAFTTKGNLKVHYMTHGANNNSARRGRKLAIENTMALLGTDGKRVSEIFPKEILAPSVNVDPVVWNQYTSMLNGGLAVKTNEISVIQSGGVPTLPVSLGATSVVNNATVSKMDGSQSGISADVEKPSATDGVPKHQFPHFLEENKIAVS
Setting: 8-mer, flanks averaged, mean of replicates
Strand = GATGTCCA; result = -0.00971
Strand = TGCTGCAA; result = 0.102
Strand = GATGCACC; result = -0.0995
Strand = TCTAGAGA; result = 0.00739
Strand = ATGTTGTG; result = 0.228
Strand = TCCGGGAA; result = -0.075
Strand = AAATTTGG; result = 0.113
Strand = ATCGCCTA; result = -0.124
Strand = AAGTTTTA; result = 0.267
Strand = CTTTCTTC; result = -0.0244
Strand = ATGCGGCC; result = -0.227
Strand = GGCCCATA; result = -0.0908
Strand = TGAGACAA; result = -0.0683
Strand = AAAGTTTC; result = 0.077
Strand = ACGATCCC; result = -0.225
Strand = CGCTAAAC; result = -0.104
Strand = AGCTCGAC; result = -0.156
Strand = ACCCGGGA; result = -0.301

Excerpt of the above (sample 7):
Strand = TCTAGAGA; result = 0.00739
Strand = ATGTTGTG; result = 0.228
Strand = TCCGGGAA; result = -0.075
Strand = AAATTTGG; result = 0.113
Strand = ATCGCCTA; result = -0.124
Strand = AAGTTTTA; result = 0.267
Strand = CTTTCTTC; result = -0.0244
Strand = ATGCGGCC; result = -0.227
Strand = GGCCCATA; result = -0.0908
Strand = TGAGACAA; result = -0.0683
Strand = AAAGTTTC; result = 0.077
Strand = ACGATCCC; result = -0.225
Strand = CGCTAAAC; result = -0.104
Strand = AGCTCGAC; result = -0.156
Strand = ACCCGGGA; result = -0.301
